Results pooled from the literature.
Protocols differ between the studies behind these lines.
Organism: Escherichia coli

Structure (SMILES) | assay | test system | conditions | MIC
CC(=O)N[C@H](Cc1c(F)c(F)c(F)c(F)c1F)C(=O)N[C@@H](CCN)C(=O)N[C@H](C(=O)N[C@@H](CCN)C(=O)N[C@H]1CCNC(=O)[C@H]([C@@H](C)O)NC(=O)[C@H](CCN)NC(=O)[C@H](CCN)NC(=O)[C@H](CC(C)C)NC(=O)[C@@H](Cc2ccccc2)NC(=O)[C@H](CCN)NC1=O)[C@@H](C)O | broth microdilution | ATCC 25922, colistin-susceptible | – | < 0.125 µg/mL
CC[C@H](C)[C@H](NC(=O)[C@H](Cc1c[nH]c2ccccc12)NC(=O)c1ccccc1)C(=O)N[C@H](C(=O)N[C@@H](Cc1ccc(O)cc1)C(=O)N[C@@H](CCCCN)C(=O)N[C@@H](Cc1c[nH]c2ccccc12)C(=O)N[C@H](CCCNC(=N)N)C(=O)N[C@@H](CCCNC(=N)N)C(=O)N[C@@H](CCCCN)C(=O)N[C@H](C(=O)N[C@H](C(=O)N[C@@H](CCCNC(=N)N)C(=O)N[C@@H](Cc1ccc(O)cc1)C(=O)N[C@@H](Cc1c[nH]c2ccccc12)C(=O)N[C@H](C(=O)NCC(=O)N[C@@H](CCCCN)C(=O)N[C@@H](CCCNC(=N)N)C(N)=O)[C@@H](C)O)C(C)C)C(C)C)C(C)C | – | DH5α | 16 h, 37 °C | > 100 µM
CCCCCCCCCCCCCC(=O)N[C@@H](Cc1c[nH]c2ccccc12)C(=O)N[C@@H](Cc1c[nH]c2ccccc12)C(=O)N[C@H](C(=O)N[C@@H](Cc1ccccc1)C(=O)N[C@@H](CCCNC(=N)N)C(=O)N[C@H](C(=O)N[C@H](C(=O)N[C@@H](Cc1ccc(O)cc1)C(=O)N1CCC[C@@H]1C(=O)N[C@@H](CCCNC(=N)N)C(=O)N[C@H](C(=O)N[C@H](C(=O)N[C@@H](Cc1ccc(O)cc1)C(=O)N[C@@H](CCCNC(=N)N)C(=O)N[C@@H](CCCNC(=N)N)C(=O)N[C@H](C(=O)N[C@@H](CCCNC(=N)N)C(=O)N[C@@H](Cc1c[nH]c2ccccc12)C(=O)N[C@H](C(=O)NCC(=O)N1CCC[C@H]1C(=O)N[C@@H](CCCCN)C(=O)N[C@@H](CCCCN)C(N)=O)[C@@H](C)O)C(C)C)C(C)C)[C@@H](C)CC)C(C)C)C(C)C)C(C)C | bacterial growth, broth dilution, OD600 | DH5α, LB medium | 16 h, 37 °C | > 100 µM
CO[C@@H](C(N)=O)[C@H](NC(=O)c1ccc(NC(=O)[C@@H](N)Cc2ccccc2)cc1)C(=O)Nc1ccc(C(=O)Nc2ccc(C(=O)Nc3ccc(C(=O)O)c(O)c3OC(C)C)c(O)c2OC(C)C)cc1 | – | glutathione S-transferase-like clone | 16 h, 37 °C | 0.031 µg/mL
CC[C@H](C)[C@H](NC(=O)[C@@H](CCCNC(=N)N)NC(=O)[C@H](CCCNC(=N)N)NC(=O)[C@@H]1CCCN1C(=O)[C@@H]1CCCN1C(=O)[C@H](CCCNC(=N)N)NC(=O)[C@@H]1CCCN1C(=O)[C@H](CCCNC(=N)N)NC(=O)[C@@H]1CCCN1C(=O)[C@H](CC(C)C)NC(=O)[C@H](Cc1ccc(O)cc1)NC(=O)[C@@H]1CCCN1C(=O)[C@@H]1CCCN1C(=O)[C@H](CCCCN)NC(=O)[C@H](Cc1c[nH]c2ccccc12)NC(=O)[C@@H](N)C(C)C)C(=O)N[C@@H](Cc1ccc(O)cc1)C(=O)N[C@@H](CC(N)=O)C(=O)N[C@H](CCCNC(=N)N)C(N)=O | broth microdilution | MC4100 | 18 h, 37 °C, 25% MHB2 | 8 µg/mL
CC[C@H](C)[C@H](NC(=O)[C@@H](NC(=O)[C@H](CCCCN)NC(=O)[C@H](CCCCN)NC(=O)[C@@H](NC(=O)[C@H](Cc1c[nH]c2ccccc12)NC(=O)[C@H](CCCCN)NC(=O)[C@H](Cc1c[nH]c2ccccc12)NC(=O)[C@H](CC(C)C)NC(=O)[C@H](CCCCN)NC(=O)[C@H](CCCCN)NC(=O)[C@@H](N)C(C)C)[C@@H](C)CC)C(C)C)C(N)=O | – | – | 24 h, 37 °C, Mueller-Hinton broth, FeCl3 4 µM | 16 µM
CC[C@H](C)[C@H](NC(=O)[C@@H](CCCNC(=N)N)NC(=O)[C@H](CCCNC(=N)N)NC(=O)[C@H](Cc1ccccc1)NC(=O)[C@H](Cc1c[nH]c2ccccc12)NC(=O)[C@H](CCCNC(=N)N)NC(=O)[C@@H]1CCCN1C(=O)[C@H](CCCNC(=N)N)NC(=O)[C@@H]1CCCN1C(=O)[C@H](CC(C)C)NC(=O)[C@H](Cc1ccc(O)cc1)NC(=O)[C@@H]1CCCN1C(=O)[C@@H]1CCCN1C(=O)[C@H](CCCCN)NC(=O)[C@H](CC(=O)O)NC(=O)[C@@H](N)C(C)C)C(=O)N[C@@H](Cc1ccc(O)cc1)C(=O)N[C@@H](CC(N)=O)C(=O)N[C@H](CCCNC(=N)N)C(N)=O | broth microdilution | ATCC 25922 | 18 h, 37 °C, 25% MHB2 | 16 µg/mL
CC1(C)[C@H](NC(=O)/C(=N\OCc2c(Cl)cccc2Cl)c2csc(N)n2)C(=O)N1OS(=O)(=O)O | agar dilution | CDC 1001728, NDM-1 | – | 8 µg/mL
CC[C@H](C)[C@H](NC(=O)[C@@H](CCCNC(=N)N)NC(=O)[C@H](CCCNC(=N)N)NC(=O)[C@H](CCCCN)NC(=O)[C@H](Cc1c[nH]c2ccccc12)NC(=O)[C@H](CCCNC(=N)N)NC(=O)[C@@H]1CCCN1C(=O)[C@H](CCCNC(=N)N)NC(=O)[C@@H]1CCCN1C(=O)[C@H](CC(C)C)NC(=O)[C@H](Cc1ccc(O)cc1)NC(=O)[C@@H]1CCCN1C(=O)[C@@H]1CCCN1C(=O)[C@H](CCCCN)NC(=O)[C@H](CC(=O)O)NC(=O)[C@@H](N)C(C)C)C(=O)N[C@@H](Cc1ccc(O)cc1)C(=O)N[C@@H](CC(N)=O)C(=O)N[C@H](CCCNC(=N)N)C(N)=O | broth microdilution | MC4100 | 18 h, 37 °C, 25% MHB2 | 8 µg/mL
CSCC[C@H](NC=O)C(=O)N[C@@H](CCCNC(=N)N)C(=O)N[C@H](C(=O)NCC(=O)N[C@@H](CC(N)=O)C(=O)N[C@@H](C)C(=O)N[C@@H](CC(N)=O)C(=O)NCC(=O)N1CCN(c2cc3c(cc2F)c(=O)c(C(=O)O)cn3C2CC2)CC1)[C@@H](C)O | multistep resistance selection | K-12 MG1655 | day 2 | 1.56 µM
CC[C@H](C)[C@H](NC(=O)[C@H](C)NC(=O)[C@@H](NC(=O)[C@H](CC(=O)O)NC(=O)[C@H](CCCCN)NC(=O)[C@H](CO)NC(=O)[C@@H](NC(=O)[C@H](CC(N)=O)NC(=O)[C@H](C)NC(=O)[C@@H](NC(=O)[C@H](CCC(=O)O)NC(=O)[C@H](CCCCN)NC(=O)[C@@H](NC(=O)[C@@H](NC(=O)[C@H](Cc1c[nH]cn1)NC(=O)[C@H](CCCCN)NC(=O)[C@@H](NC(=O)[C@H](CCCCN)NC(=O)[C@H](CCCCN)NC(=O)[C@@H](NC(=O)[C@H](CC(C)C)NC(=O)[C@H](CCCCN)NC(=O)[C@H](CC(N)=O)NC(=O)[C@H](Cc1ccccc1)NC(=O)[C@H](CCCNC(=N)N)NC(=O)[C@H](CCCCN)NC(=O)[C@H](CCCNC(=N)N)NC(=O)[C@H](Cc1ccccc1)NC(=O)CN)C(C)C)C(C)C)[C@@H](C)O)[C@@H](C)CC)[C@@H](C)O)C(C)C)C(C)C)C(=O)N[C@H](C(=O)N[C@@H](C)C(=O)NCC(=O)N[C@@H](CO)C(=O)NCC(=O)N[C@H](C(=O)N[C@@H](C)C(=O)N[C@H](C(=O)NCC(=O)N[C@@H](C)C(=O)N[C@@H](C)C(=O)N[C@@H](CCSC)C(N)=O)C(C)C)C(C)C)C(C)C | broth microdilution | RKI 6 A-6, CAMHB with 10% mouse serum | 150 mM NaCl | 1 µg/mL
CC[C@H](C)[C@H](NC(=O)[C@@H](CCCNC(=N)N)NC(=O)[C@H](CCCNC(=N)N)NC(=O)[C@@H]1CCCN1C(=O)[C@@H]1CCCN1C(=O)[C@H](CCCNC(=N)N)NC(=O)[C@@H]1CCCN1C(=O)[C@H](CCCNC(=N)N)NC(=O)[C@@H]1CCCN1C(=O)[C@H](CC(C)C)NC(=O)[C@H](Cc1ccc(O)cc1)NC(=O)[C@@H]1CCCN1C(=O)[C@@H]1CCCN1C(=O)[C@H](CCCCN)NC(=O)[C@H](CC(=O)O)NC(=O)[C@@H](N)C(C)C)C(=O)N[C@@H](Cc1ccc(O)c([N+](=O)[O-])c1)C(=O)N[C@@H](CC(N)=O)C(=O)N[C@H](CCCNC(=N)N)C(N)=O | broth microdilution | MC4100 | 18 h, 37 °C, 25% MHB2 | 8 µg/mL
c1ccc2c(c1)nc(CNCC13CC4CC(CC(C4)C1)C3)n2CC1CCCCC1 | – | ATCC 25922 | – | > 128 µg/mL
Cn1nc(CCN)c(=O)c2c(=O)[nH]c(N)nc21 | microbial growth, broth dilution | BW25113 | 18 h | > 100 µg/mL
CC[C@H](C)[C@H](NC(=O)[C@@H]1CCCN1C(=O)CNC(=O)[C@H](CC(C)C)NC(=O)[C@H](CCCCN)NC(=O)[C@H](CCCNC(=N)N)NC(=O)[C@H](Cc1c[nH]c2ccccc12)NC(=O)[C@H](C)NC(=O)[C@H](CC(N)=O)NC(=O)[C@H](CCCCN)NC(=O)[C@H](CC(C)C)NC(=O)[C@H](CCCCN)NC(=O)[C@H](CC(N)=O)NC(=O)[C@H](CCCNC(=N)N)NC(=O)[C@H](C)NC(=O)[C@H](CCCNC(=N)N)NC(=O)[C@H](CCCNC(=N)N)NC(=O)[C@H](Cc1ccccc1)NC(=O)[C@H](Cc1c[nH]c2ccccc12)NC(=O)CN)C(=O)N[C@H](C(=O)NCC(=O)N1CCC[C@H]1C(=O)N[C@@H](CC(C)C)C(=O)N[C@@H](CC(C)C)C(=O)N[C@H](C(=O)N[C@@H](CCCNC(=N)N)C(=O)O)[C@@H](C)O)C(C)C | broth microdilution | K88, Mueller-Hinton broth | 37 °C | 2.2 µg/mL

Repeated from above:
Structure (SMILES) | assay | test system | conditions | MIC
CC[C@H](C)[C@H](NC(=O)[C@@H]1CCCN1C(=O)CNC(=O)[C@H](CC(C)C)NC(=O)[C@H](CCCCN)NC(=O)[C@H](CCCNC(=N)N)NC(=O)[C@H](Cc1c[nH]c2ccccc12)NC(=O)[C@H](C)NC(=O)[C@H](CC(N)=O)NC(=O)[C@H](CCCCN)NC(=O)[C@H](CC(C)C)NC(=O)[C@H](CCCCN)NC(=O)[C@H](CC(N)=O)NC(=O)[C@H](CCCNC(=N)N)NC(=O)[C@H](C)NC(=O)[C@H](CCCNC(=N)N)NC(=O)[C@H](CCCNC(=N)N)NC(=O)[C@H](Cc1ccccc1)NC(=O)[C@H](Cc1c[nH]c2ccccc12)NC(=O)CN)C(=O)N[C@H](C(=O)NCC(=O)N1CCC[C@H]1C(=O)N[C@@H](CC(C)C)C(=O)N[C@@H](CC(C)C)C(=O)N[C@H](C(=O)N[C@@H](CCCNC(=N)N)C(=O)O)[C@@H](C)O)C(C)C | broth microdilution | K88, Mueller-Hinton broth | 37 °C | 2.2 µg/mL
